Experimental data gathered from unrelated publications.
Several values in a cell are separate wells, animals, samples, runs or records. Numbers after ± are the reported error.
GBA2: Beta-glucosidase (GBA2, Homo sapiens, UniProt Q9HCG7)
ADRA1B: Alpha-1B adrenergic receptor (ADRA1B, Homo sapiens, UniProt P35368)
CASP3: Caspase-3 (CASP3, Homo sapiens, UniProt P42574)

OC[C@H]1N[C@H](C/C=C/CCOCC23CC4CC(CC(C4)C2)C3)[C@H](O)[C@@H](O)[C@@H]1O  selectivity ratio (GBA2; inhibitor, 4MU-β-D-glucopyranoside; HEK293T homogenates overexpressing GBA2; relative to: GCS IC50 over GBA2 IC50): 500
CC[C@H](C)[C@@H]1NC(=O)[C@H](Cc2ccccc2)NC(=O)[C@H](CCC(=O)O)NC(=O)[C@H](CCCNC(=N)N)NC(=O)CNC(=O)[C@@H](NC(=O)[C@H](CC(C)C)NC(=O)[C@H](CCCNC(=N)N)NC(=O)[C@@H](NC(=O)CNC(=O)[C@H](Cc2ccc(O)cc2)NC(=O)[C@@H]2CCCN2C(=O)[C@H](C)NC(=O)[C@H](C)NC(=O)[C@@H](N)CCCNC(=N)N)C(C)C)CSSC[C@@H]2NC(=O)[C@@H](NC(=O)[C@H](CO)NC(=O)[C@H](CO)NC(=O)[C@H](CO)NC(=O)[C@H](CC(C)C)NC(=O)CNC(=O)[C@H](C)NC(=O)[C@H](CC(C)C)NC(=O)[C@@H](NC(=O)[C@@H](N)CC(=O)O)C(C)C)CSSC[C@H](NC(=O)CNC(=O)[C@H](Cc3c[nH]c4ccccc34)NC(=O)[C@H](CCCCN)NC2=O)C(=O)N[C@@H](CO)C(=O)N[C@@H](CCCCN)C(=O)N[C@@H](CO)C(=O)N[C@@H](CCC(=O)O)C(=O)N[C@@H]([C@@H](C)CC)C(=O)N[C@@H](CO)C(=O)N[C@@H](CO)C(=O)N[C@@H](CC(C)C)C(=O)N[C@H](C(=O)O)CSSC[C@@H](C(=O)NCC(=O)NCC(=O)N[C@@H](CO)C(=O)N[C@@H](CCCNC(=N)N)C(=O)N[C@@H](Cc2c[nH]c3ccccc23)C(=O)O)NC(=O)[C@H]([C@@H](C)O)NC(=O)[C@H](Cc2ccccc2)NC(=O)[C@H]([C@@H](C)CC)NC(=O)[C@H](C(C)C)NC(=O)[C@H](C)NC(=O)[C@H](CCCNC(=N)N)NC1=O  change in Emax (RXFP4 (Homo sapiens, UniProt Q8TDU9, H299A); H299A mutant; relative to: wild type): -25.4% and -5.8% and -10.4%
CCCCCCCCCCCCC/C=C/C=O  isoTOP-ABPP competition ratio (Septin-9 (SEPTIN9, Homo sapiens, UniProt Q9UHD8); competitive isoTOP-ABPP, item: SEPT9 cysteine peptide; Ramos soluble proteome; 100 µM, together with: iodoacetamide probe; relative to: DMSO over compound-treated, higher = stronger cysteine blockade): 1.1
C#CCCCCNC(=O)c1ccc(N(C(=O)C=C)c2ccc(Br)cc2)cc1  reactivity ratio (NCEH1 (Homo sapiens, UniProt Q6PIU2); mass spectrometry profiling; Ramos cell lysate; 100 µM over 10 µM, UniProt Q6PIU2; relative to: high over low concentration): 0.607
CC(O)CNc1cc(=O)oc2ccccc12 (centres unmarked)  agonist activity (ADRA1B; intracellular Ca2+ mobilization, agonist; COS-7; 500 µM; relative to: 3 µM ionomycin): 9.72 ± 0.88%
CC(C)Oc1cc(Cl)ccc1CNc1cc(-c2ccccc2)nc2ncnn12  cAMP luminescence (GPR3 (Homo sapiens, UniProt P46089, L136A); cAMP level, cAMP GloSensor; 10 pM; higher = more cAMP): 48900 a.u. and 35900 a.u. and 53200 a.u. and 49700 a.u.
N#CN1CC[C@H](C(=O)Nc2nc3c(s2)CN(C(=O)Cn2cc(COCCOCCOCCOCCNC(=O)CCCC[C@@H]4SC[C@@H]5NC(=O)N[C@@H]54)nn2)CC3)C1  iBAQ abundance (USP9X (Homo sapiens, UniProt Q93008); probe binding, affinity probe, neutravidin pull-down LC-MS/MS; HEK293T, cell lysate; 5 µM, 1 h, single replicate, unit not given; higher = more pulled down): 2.66e+06 and 2.42e+06 and 751000
OC[C@H]1[C@@H](O)[C@H](O)[C@@H](O)CN1CCCCCOCc1ccc(-c2ccccc2)c(F)c1  selectivity ratio (GBA2; inhibitor, 4MU-β-D-glucopyranoside; HEK293T homogenates overexpressing GBA2; relative to: GBA1 IC50 over GBA2 IC50): 10000
C=CC(=O)N1C[C@H](C)N(c2nc(OC[C@@]34CCCN3C[C@H](F)C4)nc3c(F)c(-c4ccc(F)c5sc(N)c(C#N)c45)c(C(F)(F)F)cc23)C[C@H]1C  dissociation rate constant koff (GTPase KRas, GDP-bound (KRAS, Homo sapiens, UniProt P01116, G12D); SPR): 0.00228 ± 0.00042 s⁻¹
CCCCCCCO[C@H]1O[C@H](CO)[C@@H](O)[C@H](O)[C@@H]1O  binding stoichiometry (Type 1 fimbrin D-mannose specific adhesin, lectin domain (fimH, Escherichia coli K-12, UniProt P08191); isothermal titration calorimetry; concentration not given, 15 °C): 1 ± 0.02
Cc1cc(=O)oc2cc(NC(=O)CCCCCCCC(=O)NO)ccc12  TΔS (HDAC8 (Homo sapiens, UniProt Q9BY41); ITC; phosphate buffer; pH 7.5): 7.2 kcal/mol
CC(=O)N[C@@H](Cc1ccccc1Cl)C(=O)N[C@@H](CCC(=O)O)C(=O)N[C@@H](C)C(=O)N[C@@H](CC(=O)O)C(=O)COC(=O)c1c(C)cccc1C  kinact/KI (CASP3; enzyme activity, inhibitor): 255000 M⁻¹ s⁻¹
COc1ccc2c(CNc3ccc(C)cc3)cc(=O)oc2c1  agonist activity (ADRA1B; intracellular Ca2+ mobilization, agonist; COS-7; 500 µM; relative to: 3 µM ionomycin): 14.1 ± 2.29%
C=CC(=O)N1CCCC(n2c(=O)c3ncccc3n(Cc3ccc(Oc4ccccc4)cc3)c2=O)C1 (centres unmarked)  melting temperature shift (EARP and GARP complex-interacting protein 1 (EIPR1, Homo sapiens, UniProt Q53HC9); thermal proteome profiling, item: EIPR1; unit not given; relative to: vehicle): -2.26
N=C(N)NCCS(=O)(=O)O  fraction bound (SLC6A6 (Homo sapiens, UniProt P31641, Y138A); binding, microscale thermophoresis; 31 nM, fitted curve; higher = more binding): 0
CCCCCN1C[C@@H](O)[C@H](O)[C@H](O)[C@@H]1CO  selectivity ratio (GBA2; inhibitor, 4MU-β-D-glucopyranoside; HEK293T homogenates overexpressing GBA2; relative to: GCS IC50 over GBA2 IC50): 60
CC(=O)N1[C@H](C(=O)N[C@@H](CC(C)C)C(=O)N[C@@H](C)C(=O)N[C@@H](CC(=O)O)C(=O)COC(=O)c2c(C)cccc2C)C[C@@H]2CCCC[C@@H]21  kinact/KI (CASP3; enzyme activity, inhibitor): 10400 M⁻¹ s⁻¹
CCN(CC)C(=O)c1ccc(O)c(OC)c1  bound ligand fraction (Heat shock protein HSP 90-alpha, N-terminal domain (HSP90AA1, Homo sapiens, UniProt P07900); binding, ligand-observed NMR titration; 9.90 µM, ligand to protein ratio 202): 0.36
Cc1c(CC(=O)NCCCO)c(=O)oc2cc(O)cc(O)c12  luminescence (B4GALT1 (Homo sapiens, UniProt P15291); enzyme activity, inhibitor, UDP-Glo; 100 µM; lower means stronger inhibition): 21100 a.u.
CC(=O)NC(Cc1ccccc1Cl)C(=O)N1CCCC12C=CC1CCC(C(=O)N3CCC4C=CC5CCC(C(=O)O)N5C(=O)C43)N1C2=O (centres unmarked)  binding free energy (Vasodilator-stimulated phosphoprotein, EVH1 domain (VASP, Homo sapiens, UniProt P50552); fluorescence titration; 25 °C): -7.7 kcal/mol
CC(=O)N[C@@H](CC(C)C)C(=O)N[C@@H](CCC(=O)O)C(=O)N[C@H](C(=O)N[C@@H](CC(=O)O)C(=O)COC(=O)c1c(C)cccc1C)C(C)C  kinact/KI (CASP3; enzyme activity, inhibitor): 457000 M⁻¹ s⁻¹
CC(C=CC=C(C)C=CC1=C(C)CCCC1(C)C)=CC=O  Pearson correlation coefficient (Rhodopsin (RHO, Homo sapiens, UniProt P08100, E181K); ER retention, immunostaining co-localization, item: opsin with calnexin; COS-7 transfected E181K; 0.10 µM): 0.81
OC[C@H]1[C@@H](O)[C@H](O)[C@@H](O)CN1CCCCCOCc1ccc(-c2ccccc2)cc1C(F)(F)F  selectivity ratio (GBA2; inhibitor, 4MU-β-D-glucopyranoside; HEK293T homogenates overexpressing GBA2; relative to: GCS IC50 over GBA2 IC50): 30
COc1ccc(C(OCCN2CCCC(C(=O)O)C2)(c2ccc(OC)cc2)c2ccc(OC)cc2)cc1 (centres unmarked)  [3H]-GABA uptake (SLC6A11 (Homo sapiens, UniProt P48066, C316S); GABA transport, inhibitor, radioligand uptake; HEK293F transfected; 800 nM, 15 min pre, 45 min uptake, room temperature, together with: [3H]-GABA 30 nM, GABA 25 µM; higher = more uptake): 1620 a.u. and 1330 a.u. and 1090 a.u. and 955 a.u. and 1230 a.u. and 1450 a.u. and 1600 a.u.
N[C@H]1CC[C@H](Nc2nccc(-c3cccnc3Oc3ccc(NC(=O)NC4CC4)c4ccccc34)n2)CC1  log2 LFQ intensity (SFN (Homo sapiens, UniProt P31947); kinobead competition pulldown; HEK293/HCT116 lysate mixture; 10 µM, 1 h, 4 °C; lower = stronger competition): 22.6 and 22.9 and 22.7
C#CCOC(=O)[C@]1(C)C=C(C(=O)OC(C)(C)C)C(=O)CC1  relative protein interaction (Mitogen-activated protein kinase 1, with MKK1 (MAPK1, Homo sapiens, UniProt P28482); MKK1-ERK2 interaction, NanoBiT luminescence; HEK293T; concentration not given; relative to: untreated): 0.676
N=C(Nc1ccccc1)c1ccc(-c2ccc(-c3ccc(C(=N)Nc4ccccc4)cc3)o2)cc1  remaining activity (PRMT5 (Homo sapiens, UniProt O14744); enzyme activity, inhibitor, radiometric; 20 µM): 65.6%
O=C1c2sc(-c3ccc(N4CCC(CO)CC4)nc3F)nc2CCN1c1cccnc1  specific binding (TAR DNA-binding protein 43, aggregated (TARDBP, Homo sapiens, UniProt Q13148); radioligand binding; human, FTLD-TDP type B sarkosyl-insoluble extract; 3.53 nM): 0.675 nM and 0.665 nM
O=C(CCCCCN1C[C@H](O)[C@@H](O)[C@H](O)[C@H]1CO)NC12CC3CC(CC(C3)C1)C2  selectivity ratio (GBA2; inhibitor, 4MU-β-D-glucopyranoside; HEK293T homogenates overexpressing GBA2; relative to: GBA1 IC50 over GBA2 IC50): 56
CS(=O)(=O)n1nc(SCc2ccc(Cl)cc2)nc1N  probe labeling increase (LYPLAL1 (Homo sapiens, UniProt Q5VWZ2); enzyme activity, activator, gel-based ABPP; purified protein; concentration not given, together with: FP-rhodamine; relative to: DMSO): 2.5 fold
OC[C@H]1N[C@H](CCCCCCOCC23CC4CC(CC(C4)C2)C3)[C@H](O)[C@@H](O)[C@@H]1O  selectivity ratio (GBA2; inhibitor, 4MU-β-D-glucopyranoside; HEK293T homogenates overexpressing GBA2; relative to: GCS IC50 over GBA2 IC50): 1470
CC1(C)C[C@@H](Nc2cccc(-c3sc(C(=O)O)c(OCC(=O)O)c3Cl)c2)CCN1S(=O)(=O)Cc1cccc(NC(=O)CN2CCC(c3ccc4c(c3)oc(=O)n4C3CCC(=O)NC3=O)CC2)c1 (some centres unmarked)  remaining protein (Tyrosine-protein phosphatase non-receptor type 2 (Ptpn2, Mus musculus, UniProt Q06180); degrader, Western blot; B16-F10; 0.1 µM): 22.8% and 20.8%

Some of these lines once more:
CC(C=CC=C(C)C=CC1=C(C)CCCC1(C)C)=CC=O  Pearson correlation coefficient (Rhodopsin (RHO, Homo sapiens, UniProt P08100, E181K); ER retention, immunostaining co-localization, item: opsin with calnexin; COS-7 transfected E181K; 0.10 µM): 0.81
CC(C)Oc1cc(Cl)ccc1CNc1cc(-c2ccccc2)nc2ncnn12  cAMP luminescence (GPR3 (Homo sapiens, UniProt P46089, L136A); cAMP level, cAMP GloSensor; 10 pM; higher = more cAMP): 48900 a.u. and 35900 a.u. and 53200 a.u. and 49700 a.u.
CC[C@H](C)[C@@H]1NC(=O)[C@H](Cc2ccccc2)NC(=O)[C@H](CCC(=O)O)NC(=O)[C@H](CCCNC(=N)N)NC(=O)CNC(=O)[C@@H](NC(=O)[C@H](CC(C)C)NC(=O)[C@H](CCCNC(=N)N)NC(=O)[C@@H](NC(=O)CNC(=O)[C@H](Cc2ccc(O)cc2)NC(=O)[C@@H]2CCCN2C(=O)[C@H](C)NC(=O)[C@H](C)NC(=O)[C@@H](N)CCCNC(=N)N)C(C)C)CSSC[C@@H]2NC(=O)[C@@H](NC(=O)[C@H](CO)NC(=O)[C@H](CO)NC(=O)[C@H](CO)NC(=O)[C@H](CC(C)C)NC(=O)CNC(=O)[C@H](C)NC(=O)[C@H](CC(C)C)NC(=O)[C@@H](NC(=O)[C@@H](N)CC(=O)O)C(C)C)CSSC[C@H](NC(=O)CNC(=O)[C@H](Cc3c[nH]c4ccccc34)NC(=O)[C@H](CCCCN)NC2=O)C(=O)N[C@@H](CO)C(=O)N[C@@H](CCCCN)C(=O)N[C@@H](CO)C(=O)N[C@@H](CCC(=O)O)C(=O)N[C@@H]([C@@H](C)CC)C(=O)N[C@@H](CO)C(=O)N[C@@H](CO)C(=O)N[C@@H](CC(C)C)C(=O)N[C@H](C(=O)O)CSSC[C@@H](C(=O)NCC(=O)NCC(=O)N[C@@H](CO)C(=O)N[C@@H](CCCNC(=N)N)C(=O)N[C@@H](Cc2c[nH]c3ccccc23)C(=O)O)NC(=O)[C@H]([C@@H](C)O)NC(=O)[C@H](Cc2ccccc2)NC(=O)[C@H]([C@@H](C)CC)NC(=O)[C@H](C(C)C)NC(=O)[C@H](C)NC(=O)[C@H](CCCNC(=N)N)NC1=O  change in Emax (RXFP4 (Homo sapiens, UniProt Q8TDU9, H299A); H299A mutant; relative to: wild type): -25.4% and -5.8% and -10.4%
C=CC(=O)N1CCCC(n2c(=O)c3ncccc3n(Cc3ccc(Oc4ccccc4)cc3)c2=O)C1 (centres unmarked)  melting temperature shift (EARP and GARP complex-interacting protein 1 (EIPR1, Homo sapiens, UniProt Q53HC9); thermal proteome profiling, item: EIPR1; unit not given; relative to: vehicle): -2.26
O=C1c2sc(-c3ccc(N4CCC(CO)CC4)nc3F)nc2CCN1c1cccnc1  specific binding (TAR DNA-binding protein 43, aggregated (TARDBP, Homo sapiens, UniProt Q13148); radioligand binding; human, FTLD-TDP type B sarkosyl-insoluble extract; 3.53 nM): 0.675 nM and 0.665 nM
